Published values collected from several papers.
Numbers after ± are the reported error.

Substance | target or system | test | system | conditions | scale | quantity | result
Nc1ncnc2c([C@@H]3N[C@H](CO)[C@@H](O)[C@H]3O)c[nH]c12 | Lassa mammarenavirus | viral replication | HeLa, Josiah | 25 µM | – | inhibition | 15%
YYQLYSTQL | – | AIM | peptide, CD8+ T cells from PBMC, human donors | – | relative to: positive over tested donors | frequency of responding donors | 50%
CC(C)(C)NC(=O)N[C@H](C(=O)N1C[C@H]2[C@@H]([C@H]1C(=O)NC(CC1CCC1)C(=O)C(N)=O)C2(C)C)C(C)(C)C (some centres unmarked) | Replicase polyprotein 1ab, main protease (rep, Severe acute respiratory syndrome coronavirus 2, UniProt P0DTD1) | reporter gene (Gaussia luciferase), inhibitor | – | 20 µM | – | inhibition | 22.5%
NVPLHGTILTRPLLE | human CD4 T cells | AIM | peptide | – | – | responding donors | 8%
CC[C@H](C)[C@H](NC(=O)[C@H](CC(C)C)NC(=O)[C@H](Cc1c[nH]c2ccccc12)NC(=O)[C@H](CCC(N)=O)NC(=O)[C@@H](NC(=O)[C@H](Cc1ccccc1)NC(=O)[C@H](C)NC(=O)[C@H](CCCCNC(=O)COCCOCCNC(=O)COCCOCCNC(=O)CC[C@H](NC(=O)CCCCCCCCCCCCCCCCCCC(=O)O)C(=O)O)NC(=O)[C@H](CCC(N)=O)NC(=O)[C@H](C)NC(=O)[C@@H](NC(=O)[C@H](CCCCN)NC(=O)[C@H](CC(=O)O)NC(=O)[C@H](CC(C)C)NC(=O)C(C)(C)NC(=O)[C@@H](NC(=O)[C@H](CO)NC(=O)[C@H](Cc1ccc(O)cc1)NC(=O)[C@H](CC(=O)O)NC(=O)[C@H](CO)NC(=O)[C@@H](NC(=O)[C@H](Cc1ccccc1)NC(=O)[C@@H](NC(=O)CNC(=O)[C@H](CCC(=O)O)NC(=O)C(C)(C)NC(=O)[C@@H](N)Cc1ccc(O)cc1)[C@@H](C)O)[C@@H](C)O)[C@@H](C)CC)[C@@H](C)CC)C(C)C)C(=O)N[C@@H](C)C(=O)NCC(=O)NCC(=O)N1CCC[C@H]1C(=O)N[C@@H](CO)C(=O)N[C@@H](CO)C(=O)NCC(=O)N[C@@H](C)C(=O)N1CCC[C@H]1C(=O)N1CCC[C@H]1C(=O)N1CCC[C@H]1C(=O)N[C@@H](CO)C(N)=O | – | – | patients with type 2 diabetes, serum | 5 mg, baseline, proof of concept study | – | AST | 16.4 ± 6.9 U/L
